Experimental data collected from several papers.
Parts stem from different laboratories: compare values within a part only.

Block 1 — technique: protein-binding microarray; form: double-stranded DNA, one strand shown; medium: in vitro; concentration: 2200 nM top; setting: 60-bp whole probe; with: salmon DNA 0.4 mg/ml; reference: random background probes; reading: higher = stronger binding; all sequences stand within: GCCTAGCAC … GTCTTGATTCGCTTGACGCTGCTG
Target: Interferon regulatory factor 7, full length, phosphomimetic (IRF7, Homo sapiens, UniProt Q92985, residues 1-503, S471D/S472D/S475D/S476D/S477D/S483D/S484D/S487D)
Target sequence (chain): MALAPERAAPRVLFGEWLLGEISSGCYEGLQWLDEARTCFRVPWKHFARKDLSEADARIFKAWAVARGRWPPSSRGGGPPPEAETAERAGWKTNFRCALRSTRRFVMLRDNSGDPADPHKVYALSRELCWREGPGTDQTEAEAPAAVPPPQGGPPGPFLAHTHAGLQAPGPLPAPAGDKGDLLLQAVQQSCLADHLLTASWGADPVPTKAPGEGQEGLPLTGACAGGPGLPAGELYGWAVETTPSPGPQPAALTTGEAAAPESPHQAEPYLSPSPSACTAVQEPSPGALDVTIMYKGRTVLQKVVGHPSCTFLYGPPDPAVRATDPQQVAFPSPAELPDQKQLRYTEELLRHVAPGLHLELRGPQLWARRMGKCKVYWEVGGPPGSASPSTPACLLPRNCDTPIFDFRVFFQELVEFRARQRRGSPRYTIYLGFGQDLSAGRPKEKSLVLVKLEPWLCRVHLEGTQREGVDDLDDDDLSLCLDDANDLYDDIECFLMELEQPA
| Oligonucleotide | fitted relative affinity |
| --- | --- |
| TTAGATATCGCGTTTCGATTAGTGCTA | 2.06 z-score |
| GACGGTCTCGGTCTCGGGAAGTGCTAG | -0.0437 z-score |
| TCCACTTGTCTTTTCACTTTGTGCTAG | 3.99 z-score |
| GACGGGATCGGTTTCGGGACGTGCTAG | 2.93 z-score |
| TTAGATATCATACTGGATTAGTGCTAG | -0.0318 z-score |
| TCATTTCCCAAGTTTATAACTGTGCTA | 1.95 z-score |
| TCAAGTTTGACATCTTCAACTGTGCTA | 0.192 z-score |
| GACGATATCAGTTTGGAGACGTGCTAG | 0.289 z-score |
| CACGGTCTCCTTTTCCTGACGTGCTAG | 1.48 z-score |
| GACCGACTGCTTATCCTGACGTGCTAG | 0.664 z-score |
| TTAGGACTGGGTTTCCGTTAGTGCTAG | 0.781 z-score |
| GACGATCTCAGTATCTAGACGTGCTAG | 0.117 z-score |
| TTAAAACTGAGTTTCGATTAGTGCTAG | 3.59 z-score |
| AGAAACTGTGAGGAGGGGAAGTGCTAG | -0.173 z-score |
| TCACCTCTCTCTTTCCAACTGTGCTAG | 2.9 z-score |
| TCACCTCTGCTCCTCTTACTGTGCTAG | 2.31 z-score |
| TTAGGTATCGGGTCTGGGTTAGTGCTA | 0.264 z-score |
| TCACATTTTGGTTTTCAACTGTGCTAG | 2.74 z-score |
| ATGTCTTCCCCTCTCTTTCCGTGCTAG | 2.6 z-score |

Block 2 — technique: RNA Bind-n-Seq; form: RNA; medium: in vitro; concentration: not given; reference: input RNA pool; reading: higher = stronger binding
Target: RING finger protein unkempt homolog, zinc fingers 1-6, GST-SBP tag (UNK, Homo sapiens, UniProt Q9C0B0, residues 30-357)
Sequence of UniProt Q9C0B0 (30-357, looked up): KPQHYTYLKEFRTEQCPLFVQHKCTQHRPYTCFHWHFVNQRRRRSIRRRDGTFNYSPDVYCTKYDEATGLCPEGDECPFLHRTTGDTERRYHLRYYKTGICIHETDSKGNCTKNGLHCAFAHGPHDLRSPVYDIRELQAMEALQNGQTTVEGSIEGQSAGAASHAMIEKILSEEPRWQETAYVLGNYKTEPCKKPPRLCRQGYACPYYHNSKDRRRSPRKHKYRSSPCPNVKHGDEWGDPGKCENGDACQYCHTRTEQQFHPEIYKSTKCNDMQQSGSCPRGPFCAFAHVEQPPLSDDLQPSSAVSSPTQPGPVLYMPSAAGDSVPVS
Setting: RNA with constant flanks, human and mouse sites, ends assumed
All sequences stand within: GGGAGUUCUACAGUCCGACGAUC … CAACAGAGGAUUGAGCAUCA
| Oligonucleotide | bound/input enrichment [ratio] |
| --- | --- |
| GGAGCCAGACAUCUUGAGAGUGAAAAACUUGCUCAAAUAUUGGCAGCCAGAGAAUUGGAAAUUAAACAGAUUCCAUCUGAUGGUCACUGUAUGUAUGGAGCACUUGAGGAUCAGCUGAGA | 0.116 |
| ACUUCUGGAGGUGGGUUGGACCUCCGCGGAAUGUCUAGCUUCCAAACUUUGGCUGUUGGUAUUAGAGGCAGAUUUUCUUCUCGAGUCUCUCCUGCCUUGGAUGGGCCUCAAUAGGAGUGG | 0.532 |
| GAGGACCCUUCUUCUCCACAUGCAAGCCCCACACACUCACCCCGGGAAAACGGAAUUGACAAAAACCGUCUGCUGAAGAAAGAUGCUUCAGGUAGCCCGGCAUCCACAGCCUCCUCUGGA | 0.216 |
| GAACAACAAAAAGAAAACAUGGAGAAUCUUAAAAGUCUAAAAAUUGAAGCAGAAAAUAAGUAUGAUACAAUUAAAUUGAAGAUUAAUCAGCUAUCAGAGCUAGCGGAUCCACUUAAGGAU | 0.529 |
| UUGUCUAGCAAAUAAAAGAUGUUAAUAUAUUCCUGUUACUGGCAUGUGCACGACUAUGUUAUUAGAAGCCACUUUAUCAUUUUCCUGCUUUAAAUAGAAAUGUCUAUUUAUGAAUUCUGC | 2.27 |
| CUGAGCAGAUCUGAACUUAUGUCAGUCACUCCCAAUACAGGGAUGAGUCUCUUUAUCAUAAACUUUGAGGAAGGAAGAGAAGUUAAACCAACGGUUCAGUGUAUUUGUAUGAACCUACAG | 0.142 |
| AUGACAUUAGUGAAAGCAUCAAAGAGCUUCAGUUUUACCGAAAUAACAUCUUCAAGAAAAAAAUAGAUGAAAAGAAGAGGAAAAUUAUAGAAAAUGGGGAAAAUGAGAAGACCGUGAGUU | 3.7 |
| CAUCUUUGCAUUAUAACCACUCUGCUAAAUUCUUGAAGGAGCUGACAUUAUCUAUGGAUGAGCUGGAAGAGAAUUUCCGCAGUAUGUUGAAGAGUGCAGCCACCAAAGUGACCACAGUGU | 0.181 |

Block 3 — technique: RNA Bind-n-Seq; form: RNA; medium: in vitro; concentration: 200 nM; setting: whole 134-nt RNA, ends assumed; with: 150 mM LiCl; reference: input library; reading: higher = stronger binding; library: 7-deaza-guanosine replaces G
Target: Ras GTPase-activating protein-binding protein 1, full length (G3BP1, Homo sapiens, UniProt Q13283)
Sequence of UniProt Q13283 (whole entry, looked up): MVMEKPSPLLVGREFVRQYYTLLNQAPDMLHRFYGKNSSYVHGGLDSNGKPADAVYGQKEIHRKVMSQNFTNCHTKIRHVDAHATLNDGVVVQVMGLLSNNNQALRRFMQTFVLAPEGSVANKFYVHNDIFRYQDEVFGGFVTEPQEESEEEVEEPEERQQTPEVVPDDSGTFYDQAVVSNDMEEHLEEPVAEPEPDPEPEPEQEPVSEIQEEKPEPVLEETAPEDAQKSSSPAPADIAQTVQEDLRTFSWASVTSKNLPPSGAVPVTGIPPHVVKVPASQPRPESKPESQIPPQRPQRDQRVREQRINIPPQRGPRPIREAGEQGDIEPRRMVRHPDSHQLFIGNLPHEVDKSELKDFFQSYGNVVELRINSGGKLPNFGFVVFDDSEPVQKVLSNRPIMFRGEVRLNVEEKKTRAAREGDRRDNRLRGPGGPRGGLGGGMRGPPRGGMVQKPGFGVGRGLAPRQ
All sequences stand within: GGGAGUUCUACAGUCCGACGAUC … UGGAAUUCUCGGGUGUCAAGG
| Oligonucleotide | log2 enrichment |
| --- | --- |
| UCCUGUGCUACACAUCGUAUGUACCGAAUCGGGUUUUUUUGGGAAAAAAAGGGUUUGGGAAAGUAUUAUGUUACGCCGUUCGGAUCUGCA | -2.17 |
| UCCUCAAGUCCUGUGCUACACAUCGUAUGUACCGAAUCGGGAGGGAGGGAGGAAAGUAUUAUGUUACGCCGUUCGGAUCUGCACUUCCAG | 0.11 |
| UGUCGGGGCCAAAGUGGUAACGAACGCCCGCAGCCCGGGGGCUCGAUGCUAUGGAUUCGUCACCAUGUCGACAUCUGACGAGGCGACCAA | -2.31 |
| CUGUGCUACACAUCGUAUGUACCGAAUCGGGGAAAGGGGUUUUUUUGGGGUUUUUUUGGGGAAAGUAUUAUGUUACGCCGUUCGGAUCUG | 0.0311 |
| AGUCCUGUGCUACACAUCGUAUGUACCGAAUCGGCCCCCGGGGCCCCCGGCCCCCGGAAAGUAUUAUGUUACGCCGUUCGGAUCUGCACU | -0.64 |
| UUUGCAGGGAGUGGUACGGGUAUCACUUUCCGGAGCUGGUGAAGAUCAUCAACGACAAUGCCACAUACUGCCGUCUUGCCCAGUUUAUUG | 0.41 |
| AGUCCUGUGCUACACAUCGUAUGUACCGAAUCGGAAAAAGGAAAAAGGUUUUUUUGGAAAGUAUUAUGUUACGCCGUUCGGAUCUGCACU | -2.34 |
| UCAAGUCCUGUGCUACACAUCGUAUGUACCGAAUCGGGGCCGGGCCGGGCCGGGAAAGUAUUAUGUUACGCCGUUCGGAUCUGCACUUCC | 0.671 |

Block 4 — technique: RNA Bind-n-Seq; form: RNA; medium: in vitro; concentration: 365 nM; reference: no-protein control; reading: higher = stronger binding
Target: RNA binding protein fox-1 homolog 2, RRM domain, GST-SBP tag (RBFOX2, Homo sapiens, UniProt O43251-10, residues 100-194)
Setting: natural RNA segment, single round, ends assumed
All sequences stand within: GGGAGUUCUACAGUCCGACGAUC … UGGAAUUCUCGGGUGCCAA
Residues (chain): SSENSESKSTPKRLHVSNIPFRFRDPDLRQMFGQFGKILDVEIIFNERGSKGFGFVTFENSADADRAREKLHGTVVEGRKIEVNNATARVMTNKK
| Oligonucleotide | RBNS enrichment (R) |
| --- | --- |
| UCCUUUCUAAUUUUUACUGAACUGAAAGCACAAAGAAGACUACACAGAAAAUCUGGAAACAGUUGCAGGUGUUGGGAGGAAGAUGAAAUCGAGCUGUCUUUUAACUUUUG | 0.845 |
| GGAAGCUGCACAUCUGCCCACUGAGCUUUGGUGAAAGGUCCAGAGGCUUUGGGGACCUCUGUUCCUGGGCCACCCUGCCCGUGGGCACCCUCUACCUUGGGGCACGUUCU | 1 |
| AGGCUGCAGCCAAGGGGACUGAGCAGCAGGCACCCAAUGCCACCAGCUCGUCUCUUCCUAGCAAGCAAAGGGUUAAAGAAGCCACCACCUGGGUGUCAGUGGGAAGGAGA | 0.669 |
| AAGUCAUUUUUUAAAAAUUUCUAAUGAAAGAAGUUUGUGUUCUGUCCAAAAAGUCACUGAACUCAUACUUCAGUACAUAUACAUGUAUAAGGCACACUGUAGUGCUUAAU | 0.414 |
| GAGCAUCUGGGCCGGGCAUGGUGGCUCACGCCUGUAAUCCCAGCACUCUGGGAGGUCGAGGUGGGUGGGUCACCUGAGGUUGGGAGUUCGAGACCAGCCCGACCAACAUG | 0.389 |
| AGUCUCUCUGGUUUGUCUUCUGACCCAACAGACCUGGAUCCCUGAGUCCUACCCACUCUGUCCCCAUCACCUUUCUCCACUGGGUGCAGAUCCUAGCUCCGCCUCCUGGG | 0.313 |
| CAGGGACCCGAGAUGGGGGGCGCAUUGUGGCAUUCCUCUUCUCCACAUCUGCUCGUUCUUGCCGAGGGUGCAGUGGUGGCGUGGAAGCCCUGUCACCCCACCCCAGGCCA | 0.519 |
| GCAUGGGCGACCCAUUACAGUAUGAGAUAAGAUUGAGUUCUGAUGCGUUAAACGGAGGUGGCAGAAAUUUGUCAAGAAGGCCUUAUCCAUUUCGAUUGUGUGACAGAUUG | 0.527 |

For quick reference, copied from above (block 1):
| Oligonucleotide | fitted relative affinity |
| --- | --- |
| TCAAGTTTGACATCTTCAACTGTGCTA | 0.192 z-score |
| GACGATATCAGTTTGGAGACGTGCTAG | 0.289 z-score |
| CACGGTCTCCTTTTCCTGACGTGCTAG | 1.48 z-score |
| GACCGACTGCTTATCCTGACGTGCTAG | 0.664 z-score |
